Measured values collected from several papers.
Each line is one published result; not all experiments were run side by side. Numbers after ± are the reported error.

| SMILES | target | test | system | setting | scale | measurement | result |
| --- | --- | --- | --- | --- | --- | --- | --- |
| CCCCCC=CC=C1C(=O)C=CC1CC=CCCCC(=O)O (stereo not shown) | Elongation factor 2 (EEF2, Homo sapiens, UniProt P13639) | competitive isoTOP-ABPP | proteome, soluble, MDA-MB-231 | 100 µM, with: iodoacetamide probe | relative to: DMSO over compound-treated, higher = stronger cysteine blockade | isoTOP-ABPP competition ratio | 2.6 |
| CC(C)C[C@@H]1NC(=O)[C@H](Cc2ccccc2)NC(=O)[C@H](CO)NC(=O)[C@H](Cc2ccccc2)NC(=O)CSC[C@@H](C(=O)N(C)[C@@H](Cc2ccccc2)C(N)=O)NC(=O)[C@H](Cc2c[nH]c3ccccc23)NC(=O)[C@H](Cc2c[nH]cn2)NC(=O)[C@H](Cc2ccc(O)cc2)NC1=O | STING1 (Homo sapiens, UniProt Q86WV6, H232R) | thermal stability, DSF | – | 100 µM | – | ΔTm | 7.92 °C |
| CN(C)c1ccc(-n2cc(COC(=O)[C@]3(C)C=C(C(=O)OC(C)(C)C)C(=O)CC3)nn2)cc1 | MAPK8 (Homo sapiens, UniProt P45983) | D-peptide binding, inhibitor, FP peptide displacement | – | 50 µM | lower is stronger displacement | fraction bound | 0.201 |
| O=C1c2sc(-c3ccc(N4CCC(F)C4)nc3F)nc2CCN1c1cccnc1 (stereo not shown) | TAR DNA-binding protein 43, aggregated (TARDBP, Homo sapiens, UniProt Q13148) | saturation autoradiography | human, FTLD-TDP type A brain sections | 6.25 nM | – | specific binding | 54.7 nM |
| COc1ccc(C(=O)c2c(C(=O)NCCCN(C)C)oc3ccc(Cl)cc3c2=O)cc1OC | GHSR (Homo sapiens, UniProt Q92847, R199A) | Gαq dissociation, TRUPATH BRET | HEK293T | – | – | Emax | 97.6 ± 9.5% |
| Cn1c(=O)n(C2CCC(=O)NC2=O)c2ccc(C3CCN(CC(=O)Nc4cccc(CS(=O)(=O)N5CC[C@H](Nc6cccc(-c7sc(C(=O)O)c(OCC(=O)O)c7Cl)c6)CC5(C)C)c4)CC3)cc21 (stereo partly shown) | PTPN2 (Homo sapiens, UniProt P17706, H30A/P33A/R35A) | degrader, bio-layer interferometry | – | 15.6 nM | higher = more binding | BLI binding response | 0.132 a.u. |
| CCOC(=O)C(CC)(CCCSCCOCCNc1ccc([N+](=O)[O-])c2nonc12)NC(=O)c1ccc(C2CC2)c(Cc2ccc(F)cc2)n1 (stereo not shown) | Cnr2 (Mus musculus, UniProt P47936) | cAMP, agonist | – | – | – | Emax | 118% |
| C[Si](C)(C)C[C@H](CN)CC(=O)O | Interleukin-6 receptor subunit alpha (IL6R, Homo sapiens, UniProt P08887) | binding, radioligand binding | – | 250 µM | – | inhibition | 0% |
| COC(=O)CN1CCCc2cc3cc(C(=O)NC(Cc4ccc(C)cc4)C(=O)NCC=CS(=O)(=O)c4ccccc4)c(=O)oc3cc21 (stereo not shown) | Rhodesain (rhodesain, Trypanosoma brucei rhodesiense, UniProt Q95PM0) | inhibitor | – | pH 5.5, 37 °C, with: Z-Phe-Arg-AMC | – | kinact/Ki | 1510 M⁻¹ s⁻¹ |
| O=C(O)c1cccc(CN2Cc3cccc(n3)CN(Cc3cccc(C(=O)O)n3)Cc3cccc(n3)C2)n1 | Albumin (ALB, Bos taurus, UniProt P02769) | binding | HEPES buffer | 0.67 mM albumin, 1.4 T | – | r1 relaxivity | 17.2 mM⁻¹ s⁻¹ |
| O=C(NC[C@@H](Cc1ccc(F)cc1)N1CCC(O)(C(F)(F)F)CC1)C1(c2ccc(Cl)cc2)CCCC1 | TRPA1 (Homo sapiens, UniProt O75762, F909A) | – | – | concentration not given | – | activity | inactive |
| Cc1cc(NC(=O)[C@H](O)c2cc(F)cc(F)c2)ccc1-c1cnc(N)c(C(=O)NC(C)C)c1 | PIK3C2B (Homo sapiens, UniProt O00750) | binding, competition with immobilised ligand | – | 1 µM | – | remaining binding | 73% |
| CCn1cc(-c2cccc(C(F)(F)F)c2)c2sc(C(=N)NC3CCS(=O)(=O)CC3)cc2c1=O | Bromodomain testis-specific protein, BD2 (BRDT, Homo sapiens, UniProt Q58F21) | – | – | – | – | ΔTm | 2.4 °C |

For quick reference, copied from above:
| SMILES | target | test | system | setting | scale | measurement | result |
| --- | --- | --- | --- | --- | --- | --- | --- |
| CN(C)c1ccc(-n2cc(COC(=O)[C@]3(C)C=C(C(=O)OC(C)(C)C)C(=O)CC3)nn2)cc1 | MAPK8 (Homo sapiens, UniProt P45983) | D-peptide binding, inhibitor, FP peptide displacement | – | 50 µM | lower is stronger displacement | fraction bound | 0.201 |
| Cn1c(=O)n(C2CCC(=O)NC2=O)c2ccc(C3CCN(CC(=O)Nc4cccc(CS(=O)(=O)N5CC[C@H](Nc6cccc(-c7sc(C(=O)O)c(OCC(=O)O)c7Cl)c6)CC5(C)C)c4)CC3)cc21 (stereo partly shown) | PTPN2 (Homo sapiens, UniProt P17706, H30A/P33A/R35A) | degrader, bio-layer interferometry | – | 15.6 nM | higher = more binding | BLI binding response | 0.132 a.u. |
